Measured values from different studies.
A part holds a random share of what one study measured.

Set 1
Target: PABPC1L2, full length, GST fusion (mouse, UniProt A0ABA7IW68)
Technique: RNAcompete
Molecule type: RNA
Sample: in vitro
Tested at: 20 nM
Notes: 7-mer, probes averaged, single round
Reference: mean of 7-mers
Direction: higher = stronger binding
Residues (chain): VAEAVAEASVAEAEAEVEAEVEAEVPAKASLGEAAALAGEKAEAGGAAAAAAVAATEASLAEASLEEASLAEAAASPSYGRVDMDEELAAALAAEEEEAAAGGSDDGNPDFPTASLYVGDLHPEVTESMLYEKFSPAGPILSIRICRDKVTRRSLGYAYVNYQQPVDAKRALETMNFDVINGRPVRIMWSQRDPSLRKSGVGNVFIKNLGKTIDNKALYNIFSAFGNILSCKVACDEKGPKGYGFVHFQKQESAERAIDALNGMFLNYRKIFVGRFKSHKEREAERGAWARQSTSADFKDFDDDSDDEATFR
Oligonucleotide	7-mer Z-score
GUGUUAG	-0.233
CAGACUU	-0.208
UUAGGAG	0.0623
CUAUUGA	-0.175
UACUGAU	-0.226
GAACCAU	-0.124
GACCGGC	-0.195
AAGUGAA	0.644
GCGUCAG	-0.224
GACUGUG	-0.191
GCUCAAU	0.0442
GCUUUAA	0.369
UGAGAAC	-0.209
GCGCGUG	-0.258
CACCGCG	-0.195
AUUCGGC	-0.173
CAGAUUA	-0.00289
CAUACCA	-0.115
CAUAAGA	0.0315
GUAGUGA	-0.108
GGGAAGU	0.0497
UCUUAUG	-0.286
AUGGGCG	0.244
AUCUACC	-0.293
GUGUGUA	-0.193

Set 2
Target: Interferon regulatory factor 7, full length, phosphomimetic (IRF7, Homo sapiens, UniProt Q92985, residues 1-503, S101K/S471D/S472D/S475D/S476D/S477D/S483D/S484D/S487D)
Technique: protein-binding microarray
Molecule type: double-stranded DNA, one strand shown
Sample: in vitro
Tested at: 250 nM
Notes: 60-bp whole probe
Added: salmon DNA 0.4 mg/ml
Reference: random background probes
Direction: higher = stronger binding
Constant ends, left off below: GCCTAGCAC … GTCTTGATTCGCTTGACGCTGCTG
Construct (chain): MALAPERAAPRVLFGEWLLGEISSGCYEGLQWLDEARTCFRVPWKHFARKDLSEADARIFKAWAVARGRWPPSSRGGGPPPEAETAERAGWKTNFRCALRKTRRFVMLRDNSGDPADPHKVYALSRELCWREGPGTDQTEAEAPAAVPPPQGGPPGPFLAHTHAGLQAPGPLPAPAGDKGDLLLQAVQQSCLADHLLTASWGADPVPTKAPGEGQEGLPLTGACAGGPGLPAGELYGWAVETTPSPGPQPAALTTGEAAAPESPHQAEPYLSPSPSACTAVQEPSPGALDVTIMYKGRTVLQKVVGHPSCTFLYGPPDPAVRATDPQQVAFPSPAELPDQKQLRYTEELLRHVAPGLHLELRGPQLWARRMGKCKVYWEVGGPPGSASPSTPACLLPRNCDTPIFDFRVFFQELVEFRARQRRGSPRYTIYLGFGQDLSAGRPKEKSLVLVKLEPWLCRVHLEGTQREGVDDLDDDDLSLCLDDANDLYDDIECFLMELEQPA
Oligonucleotide	log fluorescence [z-score]
GACGGACTGGACACTCGGGACGTGCTA	-0.382
TTAGATCTCAGATTCGATTAGTGCTAG	2.59
TCAGCTTTCATTTATTTACTGTGCTAG	0.199
GACGGTAACCTTATCCTGACGTGCTAG	-0.00882
GACCGTTTCGGGACTGGGGACGTGCTA	2.32
TTAGGACTGCTGTTCCTTTAGTGCTAG	-0.00145
TTTGAACTGGGGACTGGATTAGTGCTA	-0.514
GTGACAGTTTTATTTTAGTTGGTGCTA	0.358
TTAGATTTCGGGTATCGATCAGTGCTA	1.11
TTAGAACTGAGTTTCGATAAGTGCTAG	3.08
TTAGGTTTCGGGTTTCGGGTAGTGCTA	12
TCACTTCCCAATTGTCTTACTGTGCTA	1.92
GACGATTTCGGGTAGCGAGACGTGCTA	0.455
TCAATTCTGCTTTGCAAACTGTGCTAG	0.538
TTAGGTCGCGGTTTCGGTTAGTGCTAG	9.57
TTAGGTTTCGAATATCGGTTAGTGCTA	4.8
CTTGCTTCCTAATTCTCTTTGTGCTAG	0.716
GCAAACCCCATTCTCAGCCCGTGCTAG	0.484
GACGGTCCCCTTCTCCTGACGTGCTAG	0.276
TTAGATCTCAGTATGGATTAGTGCTAG	-0.0698
TCACATCTGGGTATTTTACTGTGCTAG	0.0505
AGTTTTTCATTTTTTTTCATGTGCTAG	1.18
GTCACTCTCAGAATCTCTCAGTGCTAG	0.454
GAACATATTTGTTTCCATTTGTGCTAG	4.16

Set 3
Target: Histone acetyltransferase KAT6A, both winged helices, GST fusion (KAT6A, Homo sapiens, UniProt Q92794, residues 1-181)
Technique: protein binding microarray
Molecule type: double-stranded DNA, one strand shown
Sample: in vitro
Tested at: not given
Notes: 8-mer, flanks averaged, mean of 2 arrays, mostly near background
Reference: not given
Direction: higher = stronger binding
Construct (chain): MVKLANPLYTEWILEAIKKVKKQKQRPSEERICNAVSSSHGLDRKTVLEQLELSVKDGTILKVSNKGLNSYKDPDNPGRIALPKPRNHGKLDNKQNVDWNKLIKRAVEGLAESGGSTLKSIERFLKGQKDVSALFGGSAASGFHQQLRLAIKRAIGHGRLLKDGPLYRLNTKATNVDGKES
Oligonucleotide	E-score
AGGCGGTG	0.0457
ATCTAGGA	-0.0733
TGCAGGCA	-0.149
ACGGCTTA	0.274
CCGTGTTC	0.256
TGAAAGAA	-0.1
CCCGGCAC	0.133
CGCGACGC	0.363
CTTCCGCA	0.1
CCGTTCGA	0.0329
ACCACACC	-0.0945
AGGTATAT	-0.163
ATTTCTCA	-0.11
AATCGTAG	-0.091
GGCATGGA	-0.127
AAGACCAT	-0.179
AAAACATG	-0.0801
CATTTGTC	-0.194
AGTATAGA	-0.0403
CTATACAC	-0.062
AACATCGA	-0.0952
CATCATTA	-0.0193
CATAGGGG	-0.214
AGTAGGTA	-0.152
ATTCGTTG	-0.0541

Set 4
Target: RNA binding protein fox-1 homolog 2, RRM domain, GST-SBP tag (RBFOX2, Homo sapiens, UniProt O43251-10, residues 100-194)
Technique: RNA Bind-n-Seq
Molecule type: RNA
Sample: in vitro
Tested at: 365 nM
Notes: natural RNA segment, single round, ends assumed
Reference: no-protein control
Direction: higher = stronger binding
Target sequence (chain): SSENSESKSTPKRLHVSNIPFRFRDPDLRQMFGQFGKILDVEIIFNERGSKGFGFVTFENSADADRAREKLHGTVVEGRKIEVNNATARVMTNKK
Oligonucleotide	RBNS enrichment (R)
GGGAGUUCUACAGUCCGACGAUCUGACUUUGUUAUAAAAAUAGGGCUCCCCCACCUCCCCCAUUUCUGUGUCCUUUAUUGUAGCAUUGCUGUCUGCAAGGGAGCCCCUAGCCCCUGGCAGACAUAGCUGCUUCUGGAAUUCUCGGGUGCCAA	0.635
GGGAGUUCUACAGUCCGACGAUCGGCUACAUUUGAGGACAGGAAUAUGUUGAGCCUGAUUUUCCUGGUGUGUGUAAAAUAUUUCCUAGGAAUAAAUUAGGCACUUUUUAGAAGCAAUGUUAAAUCAUUCAGGUUGGAAUUCUCGGGUGCCAA	0.522
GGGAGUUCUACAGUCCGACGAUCAUGCAAAUGGAGAUCAAAGUAAUUCUGACUGUCCAGGAGCUAUCUCACUUUCUGCUGUGUGGGCGGCCACAUAAAAAGGCAAUUUUAGUGUAUUAAUCAUAGAUUAUUAUUGGAAUUCUCGGGUGCCAA	0.527
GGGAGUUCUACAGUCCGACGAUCAAGGAGCUCUUCAGUUGGAGAUCUAGGCAGUGGGUUAAGCCAGACCCCUAAAGUGACCCUUUCCUCUUCUGCCCUAUUCUUCUCAGACCCUCAGAAAGACAUCCAAUUUUUGGAAUUCUCGGGUGCCAA	0.22
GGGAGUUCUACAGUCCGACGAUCGCUCCCUCUCAUCUAGCCCAUCAUUUCUUGGGGCCUGAACCCCAGUGGUCCAAAGUAUUGCUUGUGAAAUUUAAAAAAUGUGAAUAUGAUGUGGGGAUGGGCCUCUUCUAUGGAAUUCUCGGGUGCCAA	1.44
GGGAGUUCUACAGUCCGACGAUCUGUAGCUAUGGAAGUUGCAUAAUUAUUAUUAUUAUUAUUAUAACAAGUGUGUCUUACGUGCCACCACGGCGUUGUACCUGUAGGACUCUCAUUCGGGAUGAUUGGAAUAGUGGAAUUCUCGGGUGCCAA	1.29
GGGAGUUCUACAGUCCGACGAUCAGAAGAUCUUACAGGAGUUCUUUGCUUGAAUCCGUUCUAACACCCGCGGCAGCUGCACGCGCUCACAGAAGGUGGAGGUUACUUGCCCAGGUACAGACGACCUCGGGGCAUGGAAUUCUCGGGUGCCAA	0.768
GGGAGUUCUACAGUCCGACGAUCCUAAGGCAGAUAGCCACCUUUACAUUGUGAGUGUGUUUACCUUGUCUAAUGACGGAUAAUUCCUUAACAUUUCUCUCCACCUUAGUACUUUAGGCUAAUUAUACACGUCUUGGAAUUCUCGGGUGCCAA	0.368
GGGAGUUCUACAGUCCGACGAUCUUGGGGUCAAGGAACAUUUCAGUGGGUUUUUGCCCCAUCUCCUCCUCCCGUCCCCUGCUCAUGGGACAUGUUAUCUUUCUUAAUUCUCCUGCCGCCGCCGCCACCACCACUGGAAUUCUCGGGUGCCAA	1.01
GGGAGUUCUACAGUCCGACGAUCCUGGCCUGGCCUCCUUUCCGUCCGGGCAGCUGUGCUGCAGAGACAAAAAGUGGUGCUGAGGGACUCCUAAGUCGGCCGUAGCACCUCGAGCCCUGGGCUUUGAAGGCAGCUGGAAUUCUCGGGUGCCAA	0.488
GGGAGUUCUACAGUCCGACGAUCGGGCUCUCUAGGGGCCUCCCCGCCCCAACAGCAAGCAGUUGUUAGCUCUUGGAACCCUCCAGAGGAAGAGGCAAGCGUUUGACUUCCCCUUUACCACCUGAGGCCUCCUUUGGAAUUCUCGGGUGCCAA	0.19
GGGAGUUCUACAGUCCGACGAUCAUUUUCCUUAGACUACCUAGUGGAGCAGGGAAUACUCUGCAUCUCAGGUAAAAAAAUGAGUACACUGAACAAUAUGUAAUUCAUACGUAUUUUGCAACUUACCUGUGAGCUGGAAUUCUCGGGUGCCAA	0.295

A few entries again (set 2):
Oligonucleotide	log fluorescence [z-score]
TTAGGTTTCGAATATCGGTTAGTGCTA	4.8
TCAGCTTTCATTTATTTACTGTGCTAG	0.199
GACGATTTCGGGTAGCGAGACGTGCTA	0.455
TCAATTCTGCTTTGCAAACTGTGCTAG	0.538
GACCGTTTCGGGACTGGGGACGTGCTA	2.32
TTAGATCTCAGTATGGATTAGTGCTAG	-0.0698
GAACATATTTGTTTCCATTTGTGCTAG	4.16
TCACATCTGGGTATTTTACTGTGCTAG	0.0505
GCAAACCCCATTCTCAGCCCGTGCTAG	0.484
TTAGGTCGCGGTTTCGGTTAGTGCTAG	9.57
